{"data": "Assay results of several laboratories", "note": "Every numbered part comes from another study and shows a few of its results, in no order. Positions count from the first letter of the parent shown."}
{"data": "Sample 1", "target": "CCNE1, cyclin fold, Cln2 fusion (human)", "method": "yeast growth competition, sequencing", "medium": "yeast", "notes": "strong parent motif", "reference": "not given", "reading": "higher = stronger binding", "parent": "BRCA2 docking peptide (human); PSIKRNLLNEFDR; partner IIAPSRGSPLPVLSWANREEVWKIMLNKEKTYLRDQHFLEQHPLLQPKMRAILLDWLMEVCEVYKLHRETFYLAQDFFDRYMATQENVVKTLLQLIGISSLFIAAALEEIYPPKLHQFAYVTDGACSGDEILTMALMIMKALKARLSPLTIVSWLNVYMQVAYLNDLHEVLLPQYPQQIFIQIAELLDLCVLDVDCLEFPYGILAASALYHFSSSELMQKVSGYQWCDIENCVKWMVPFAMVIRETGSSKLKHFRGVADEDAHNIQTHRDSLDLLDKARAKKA"}
{"Variant": "PSNKRNLLNEFDR [I3N]", "normalised enrichment score": -0.0987}
{"Variant": "PSIKRGLLNEFDR [N6G]", "normalised enrichment score": -0.369}
{"Variant": "PSHKRNLLNEFDR [I3H]", "normalised enrichment score": 3.9}
{"Variant": "PSIKRNLLNEFQR [D12Q]", "normalised enrichment score": 1.78}
{"Variant": "PSIKRSLLNEFDR [N6S]", "normalised enrichment score": 0.712}
{"data": "Sample 2", "target": "RNA binding protein fox-1 homolog 2, RRM domain, GST-SBP tag (RBFOX2, Homo sapiens, UniProt O43251-10, residues 100-194)", "method": "RNA Bind-n-Seq", "molecule type": "RNA", "medium": "in vitro", "concentration": "365 nM", "notes": "natural RNA segment, single round, ends assumed", "reference": "no-protein control", "reading": "higher = stronger binding", "Construct (chain)": "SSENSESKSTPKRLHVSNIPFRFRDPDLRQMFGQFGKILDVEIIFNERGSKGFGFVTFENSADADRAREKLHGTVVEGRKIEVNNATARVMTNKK"}
{"Oligonucleotide": "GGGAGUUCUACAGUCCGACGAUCCGCUGCUCCUUUUCGGUAGAGGAGAGGCCCAUCACUGGUGUGGUGGGGUGGGCUCUCCCUUAGGCUUGGGCAAGGCAGCCACCUGCCCUUGCUCUCCCUUAGUGUUCCCUUGGAAUUCUCGGGUGCCAA", "RBNS enrichment (R)": 0.192}
{"Oligonucleotide": "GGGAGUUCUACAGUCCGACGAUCGCACCCCUGUAGUCUCAGAACUCUAGAAGGUAAGGCAGGGAGGGUAGCCUGAGCCCAAGGCCAGCCUGGGCUACCUAACAAGACCCUGUCUCUAAAAGAAAAAAGAAUUAUGGAAUUCUCGGGUGCCAA", "RBNS enrichment (R)": 0.527}
{"Oligonucleotide": "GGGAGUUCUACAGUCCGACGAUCACUCUGCUAAUAGACACAAGCUAAGGAAAGCAGCACCGUAGCCUGACAUAGUGCAGACCUUGUAAAGCAAGAGUAGCUGGCAUCUCUUAAGUCACUGAUGCCAUUUCAUAUGGAAUUCUCGGGUGCCAA", "RBNS enrichment (R)": 0.761}
{"Oligonucleotide": "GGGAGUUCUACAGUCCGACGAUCCCUCCCGGAAUCCGAGAUAGGGUGGCACAUCUGUCCUGACAGACGAGGAGUGUAACUGAACCAGGAAUAUUUCCUCCAUUCCUGCUCUCCCACUGCACACAGGGUGGUGGUGGAAUUCUCGGGUGCCAA", "RBNS enrichment (R)": 0.358}
{"Oligonucleotide": "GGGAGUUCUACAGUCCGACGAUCAGAGUUUAAAUGUUGACGGCGUUUGCUAUGUAUAAUUGCCCCUACACCGUUAUAAAGUGUUUUCAGGAAUUUCAGUGCCAUCCUUCCUUUUUCCUCCCUCAGUUACGUGGUGGAAUUCUCGGGUGCCAA", "RBNS enrichment (R)": 0.729}
{"data": "Sample 3", "target": "ABI1, truncated, D143A, DHFR fusion (Arabidopsis thaliana)", "method": "DHFR PCA, deep sequencing", "medium": "yeast", "notes": "methotrexate growth selection, single substitutions", "together with": "(+)-ABA 0 µM", "reference": "wild-type fitted maximum", "reading": "higher = stronger binding", "parent": "PYL1, truncated, DHFR fusion (Arabidopsis thaliana); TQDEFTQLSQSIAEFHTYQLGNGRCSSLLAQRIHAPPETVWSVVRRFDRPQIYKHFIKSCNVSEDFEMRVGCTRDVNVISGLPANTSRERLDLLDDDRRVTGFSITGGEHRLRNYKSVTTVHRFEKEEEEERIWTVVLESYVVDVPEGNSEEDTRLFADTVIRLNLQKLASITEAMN; partner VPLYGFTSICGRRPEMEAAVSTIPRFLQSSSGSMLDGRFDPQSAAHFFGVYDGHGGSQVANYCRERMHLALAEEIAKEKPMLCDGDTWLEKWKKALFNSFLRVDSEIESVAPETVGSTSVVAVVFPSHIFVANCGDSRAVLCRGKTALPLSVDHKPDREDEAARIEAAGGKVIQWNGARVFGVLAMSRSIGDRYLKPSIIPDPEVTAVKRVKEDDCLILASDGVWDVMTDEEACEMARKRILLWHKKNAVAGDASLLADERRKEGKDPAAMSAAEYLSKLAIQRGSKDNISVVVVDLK"}
{"Variant": "N114Y", "relative binding score [%]": 4.43}
{"Variant": "I105E", "relative binding score [%]": 0.578}
{"Variant": "R49I", "relative binding score [%]": -2.36}
{"Variant": "Q7I", "relative binding score [%]": 18.4}
{"data": "Single results of other studies"}
{"Substance": "PhoQ, residues 284 288 289 292 302 303 SVHLDV", "target": "PhoP, residues 12 14 15 18 19 NQAHL (Escherichia coli, UniProt P23836)", "test": "Sort-seq, measured: YFP reporter", "test system": "E. coli", "conditions": "PhoQ-PhoP variant library, together with: 10 µM Mg2+", "how to read": "reference: high Mg2+ state, higher = stronger signaling", "endpoint": "fold induction", "result": 1.33}
{"note": "Excerpt of the above (sample 2):"}
{"Oligonucleotide": "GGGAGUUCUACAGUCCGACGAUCACUCUGCUAAUAGACACAAGCUAAGGAAAGCAGCACCGUAGCCUGACAUAGUGCAGACCUUGUAAAGCAAGAGUAGCUGGCAUCUCUUAAGUCACUGAUGCCAUUUCAUAUGGAAUUCUCGGGUGCCAA", "RBNS enrichment (R)": 0.761}
{"Oligonucleotide": "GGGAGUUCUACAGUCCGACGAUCCCUCCCGGAAUCCGAGAUAGGGUGGCACAUCUGUCCUGACAGACGAGGAGUGUAACUGAACCAGGAAUAUUUCCUCCAUUCCUGCUCUCCCACUGCACACAGGGUGGUGGUGGAAUUCUCGGGUGCCAA", "RBNS enrichment (R)": 0.358}
